# Results of several laboratories.
# Each line is one published result; not all experiments were run side by side. Values joined by “and” are separate records of one study, mostly repeats; a detail may differ. Numbers after ± are the reported error.
# Cell line: A498
Structure (SMILES),test,conditions,scale,endpoint,value
C#C[C@@]1(O)[C@@H](CO)O[C@@H](n2cc(I)c3c(N)ncnc32)[C@@H]1O,SRB,NCI-60 screen,,TGI,1030 nM and 1980 nM
O=C1NCCc2[nH]c(-c3ccncc3)cc21,MTS,NCI60 panel,,IC50,> 10000 nM
NC(=S)N/N=C1\C(=O)N(CCn2ncc3c(=O)[nH]cnc32)c2ccc(F)cc21,"cell growth, SRB",72 h,,IC50,41.7 ± 19.2 µg/mL
CCOC(=O)CSc1nc(-c2ccc(Cl)cc2)c2c(NC(=O)c3ccccc3)nnc-2[nH]1,SRB,"10 µM, NCI60 single-dose screen",reference: untreated,cell growth,108%
CNC(=O)c1cc(Oc2ccc(NC(=O)Nc3ccc(Cl)c(C(F)(F)F)c3)cc2)ccn1,"cell growth, SRB",72 h,,IC50,29.4 ± 12 µg/mL
CCn1cc(-c2cc(Cn3ccoc3=N)cc3c2CCN([C@@H](C)c2cc(OC)ccn2)C3=O)c(C(F)(F)F)n1,"cell growth, inhibitor",120 h,,EC50,> 30000 nM
O=C(Nc1nnc2[nH]c(=S)[nH]c(-c3ccc(Cl)cc3)c1-2)c1ccccc1,SRB,"10 µM, NCI60 single-dose screen",reference: untreated,cell growth,97.3%
Nc1ncnc2c1ncn2CCN1C(=O)C(=O)c2cc(F)ccc21,"cell growth, SRB",72 h,,IC50,54 ± 7.81 µg/mL
CCN(CC)c1ccc(C=NNC(=O)CSc2nc3ccccc3c(=O)n2Cc2ccc(S(N)(=O)=O)cc2)c(O)c1,NCI five-dose screen,,,TGI,> 100000 nM
COc1ccc2c(c1)C(=O)C(=O)N2CCn1cnc2c(N)ncnc21,"cell growth, SRB",72 h,,IC50,60.4 ± 6.48 µg/mL
O=C(Nc1nnc2n3c(nc(-c4ccc(Cl)cc4)c1-2)SCC3=O)c1ccccc1,SRB,"10 µM, NCI60 single-dose screen",reference: untreated,cell growth,108%
C#C[C@@]1(O)[C@@H](CO)O[C@@H](n2cc(Br)c3c(N)ncnc32)[C@@H]1O,SRB,NCI-60 screen,,TGI,828 nM and 417 nM
O=C1C(=O)N(CCn2ncc3c(=O)[nH]cnc32)c2ccccc21,"cell growth, SRB",72 h,,IC50,18.3 ± 2.29 µg/mL
NNc1nc(-c2ccc(Cl)cc2)c2c(NC(=O)c3ccccc3)nnc-2[nH]1,SRB,"10 µM, NCI60 single-dose screen",reference: untreated,cell growth,114%
Cn1cncc1C1=CN(c2ncnc3[nH]cnc23)CCS1,,renal cancer,,TGI,18200 nM
